Measurements gathered from unrelated publications.
Protocols differ between the studies behind these lines. Numbers after ± are the reported error.
NMT1: Glycylpeptide N-tetradecanoyltransferase 1 (NMT1, Homo sapiens, UniProt P30419)
HSP90B1: Endoplasmin (HSP90B1, Canis lupus familiaris, UniProt P41148)
NR3C1: Glucocorticoid receptor (NR3C1, Homo sapiens, UniProt P04150)

Chains of the proteins cited; added tags and fusions are not shown. Lines headed by an entry give the natural chain unless they say otherwise; changes in a name come on top. Residues count along the entry.
UniProt P30419, whole entry: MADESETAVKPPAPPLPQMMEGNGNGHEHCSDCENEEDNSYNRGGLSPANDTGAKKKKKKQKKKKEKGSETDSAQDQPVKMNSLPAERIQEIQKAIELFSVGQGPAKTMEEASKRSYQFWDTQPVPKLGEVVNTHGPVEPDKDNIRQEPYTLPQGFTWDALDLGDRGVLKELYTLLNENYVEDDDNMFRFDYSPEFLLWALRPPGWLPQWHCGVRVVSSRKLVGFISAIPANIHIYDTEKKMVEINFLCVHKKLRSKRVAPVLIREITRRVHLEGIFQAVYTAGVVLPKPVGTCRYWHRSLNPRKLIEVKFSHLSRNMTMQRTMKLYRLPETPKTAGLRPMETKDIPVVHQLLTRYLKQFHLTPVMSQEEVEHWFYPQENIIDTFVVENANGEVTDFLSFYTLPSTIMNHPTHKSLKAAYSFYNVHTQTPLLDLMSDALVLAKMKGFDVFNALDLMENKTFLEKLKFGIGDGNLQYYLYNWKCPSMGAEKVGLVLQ
UniProt P04150, whole entry: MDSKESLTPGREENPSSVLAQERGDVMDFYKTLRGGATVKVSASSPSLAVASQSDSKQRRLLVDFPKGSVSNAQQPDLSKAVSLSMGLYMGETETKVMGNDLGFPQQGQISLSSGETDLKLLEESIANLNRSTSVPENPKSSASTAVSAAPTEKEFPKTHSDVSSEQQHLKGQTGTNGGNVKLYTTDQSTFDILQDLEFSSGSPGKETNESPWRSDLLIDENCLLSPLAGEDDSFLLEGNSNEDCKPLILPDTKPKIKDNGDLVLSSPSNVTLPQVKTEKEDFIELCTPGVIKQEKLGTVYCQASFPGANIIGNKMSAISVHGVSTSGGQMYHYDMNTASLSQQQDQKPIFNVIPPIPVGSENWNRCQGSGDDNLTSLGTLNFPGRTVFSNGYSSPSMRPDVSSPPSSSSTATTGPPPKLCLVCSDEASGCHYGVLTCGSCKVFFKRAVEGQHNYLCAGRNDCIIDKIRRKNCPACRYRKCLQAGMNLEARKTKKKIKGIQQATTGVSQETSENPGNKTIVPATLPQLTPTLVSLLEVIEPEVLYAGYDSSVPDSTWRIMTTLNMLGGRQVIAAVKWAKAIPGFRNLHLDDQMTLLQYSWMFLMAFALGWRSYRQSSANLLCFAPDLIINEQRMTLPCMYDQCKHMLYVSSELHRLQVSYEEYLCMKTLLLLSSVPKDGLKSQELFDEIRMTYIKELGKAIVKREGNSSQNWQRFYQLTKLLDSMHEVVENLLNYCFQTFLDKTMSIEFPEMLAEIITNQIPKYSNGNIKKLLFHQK
UniProt O14965, whole entry: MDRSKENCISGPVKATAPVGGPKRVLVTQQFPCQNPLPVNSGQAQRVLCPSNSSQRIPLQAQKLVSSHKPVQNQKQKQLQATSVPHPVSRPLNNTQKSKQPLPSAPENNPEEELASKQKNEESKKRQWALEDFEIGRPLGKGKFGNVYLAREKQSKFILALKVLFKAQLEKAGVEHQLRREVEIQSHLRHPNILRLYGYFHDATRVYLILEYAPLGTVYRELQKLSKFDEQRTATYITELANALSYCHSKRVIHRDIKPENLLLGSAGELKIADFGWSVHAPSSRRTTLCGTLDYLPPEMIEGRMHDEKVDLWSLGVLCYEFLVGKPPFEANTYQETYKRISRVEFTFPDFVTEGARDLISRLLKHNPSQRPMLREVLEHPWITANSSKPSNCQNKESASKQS
UniProt P29074, whole entry: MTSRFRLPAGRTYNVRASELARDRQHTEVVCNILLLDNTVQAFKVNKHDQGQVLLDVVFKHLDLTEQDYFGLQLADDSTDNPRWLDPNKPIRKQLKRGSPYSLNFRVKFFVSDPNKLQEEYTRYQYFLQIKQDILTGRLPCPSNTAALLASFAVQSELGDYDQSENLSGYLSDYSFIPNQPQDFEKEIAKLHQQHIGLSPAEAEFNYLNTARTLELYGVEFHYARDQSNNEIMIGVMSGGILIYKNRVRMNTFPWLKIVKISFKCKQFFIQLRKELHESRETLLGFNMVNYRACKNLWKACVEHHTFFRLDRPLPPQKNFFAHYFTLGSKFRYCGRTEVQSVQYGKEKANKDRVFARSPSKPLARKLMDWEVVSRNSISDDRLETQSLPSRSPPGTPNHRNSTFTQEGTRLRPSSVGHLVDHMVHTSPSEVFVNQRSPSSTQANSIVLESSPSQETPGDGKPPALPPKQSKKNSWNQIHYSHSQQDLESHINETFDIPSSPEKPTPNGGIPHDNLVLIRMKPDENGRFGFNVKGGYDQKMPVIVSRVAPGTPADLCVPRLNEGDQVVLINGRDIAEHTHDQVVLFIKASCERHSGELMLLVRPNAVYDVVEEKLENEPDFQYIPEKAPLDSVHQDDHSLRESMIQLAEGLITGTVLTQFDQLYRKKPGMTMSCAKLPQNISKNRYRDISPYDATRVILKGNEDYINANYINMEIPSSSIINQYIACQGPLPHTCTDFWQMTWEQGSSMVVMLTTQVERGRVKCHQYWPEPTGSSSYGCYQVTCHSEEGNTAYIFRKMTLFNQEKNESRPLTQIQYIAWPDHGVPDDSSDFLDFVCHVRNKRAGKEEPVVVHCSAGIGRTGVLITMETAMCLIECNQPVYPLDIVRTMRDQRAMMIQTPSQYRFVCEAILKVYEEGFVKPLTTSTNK
UniProt Q13526, whole entry: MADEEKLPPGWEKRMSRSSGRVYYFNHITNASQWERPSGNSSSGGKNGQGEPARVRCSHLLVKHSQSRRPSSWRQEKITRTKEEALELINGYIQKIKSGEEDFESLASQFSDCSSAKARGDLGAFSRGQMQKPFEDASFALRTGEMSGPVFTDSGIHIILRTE
UniProt P10636, whole entry, looked up: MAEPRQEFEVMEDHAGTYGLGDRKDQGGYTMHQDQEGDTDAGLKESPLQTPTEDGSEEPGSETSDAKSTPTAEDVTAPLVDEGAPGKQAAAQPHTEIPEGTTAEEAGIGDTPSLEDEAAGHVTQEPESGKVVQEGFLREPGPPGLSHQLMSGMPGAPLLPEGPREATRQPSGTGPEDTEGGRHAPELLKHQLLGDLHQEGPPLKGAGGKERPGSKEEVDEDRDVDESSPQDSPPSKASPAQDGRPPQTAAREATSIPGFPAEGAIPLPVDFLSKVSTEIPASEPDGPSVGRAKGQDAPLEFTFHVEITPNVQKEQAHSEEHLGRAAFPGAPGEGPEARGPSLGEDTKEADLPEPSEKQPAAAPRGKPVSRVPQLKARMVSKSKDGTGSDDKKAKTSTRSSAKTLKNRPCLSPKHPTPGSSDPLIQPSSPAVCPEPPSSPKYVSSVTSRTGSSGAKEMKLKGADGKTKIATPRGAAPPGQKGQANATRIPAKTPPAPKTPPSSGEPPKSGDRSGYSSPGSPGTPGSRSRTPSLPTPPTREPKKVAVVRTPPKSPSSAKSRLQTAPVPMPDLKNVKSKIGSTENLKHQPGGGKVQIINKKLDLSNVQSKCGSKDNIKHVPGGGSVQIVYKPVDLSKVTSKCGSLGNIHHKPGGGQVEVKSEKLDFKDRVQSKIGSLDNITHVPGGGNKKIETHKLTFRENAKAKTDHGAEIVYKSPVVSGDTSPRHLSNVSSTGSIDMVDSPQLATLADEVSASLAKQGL
UniProt Q8K3Y3, whole entry, looked up: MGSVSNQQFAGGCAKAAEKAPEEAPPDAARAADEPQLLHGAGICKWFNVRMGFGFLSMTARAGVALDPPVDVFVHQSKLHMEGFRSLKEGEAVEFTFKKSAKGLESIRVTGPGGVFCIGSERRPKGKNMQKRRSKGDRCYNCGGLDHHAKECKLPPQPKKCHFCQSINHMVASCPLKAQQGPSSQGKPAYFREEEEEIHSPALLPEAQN
UniProt P49116, whole entry, looked up: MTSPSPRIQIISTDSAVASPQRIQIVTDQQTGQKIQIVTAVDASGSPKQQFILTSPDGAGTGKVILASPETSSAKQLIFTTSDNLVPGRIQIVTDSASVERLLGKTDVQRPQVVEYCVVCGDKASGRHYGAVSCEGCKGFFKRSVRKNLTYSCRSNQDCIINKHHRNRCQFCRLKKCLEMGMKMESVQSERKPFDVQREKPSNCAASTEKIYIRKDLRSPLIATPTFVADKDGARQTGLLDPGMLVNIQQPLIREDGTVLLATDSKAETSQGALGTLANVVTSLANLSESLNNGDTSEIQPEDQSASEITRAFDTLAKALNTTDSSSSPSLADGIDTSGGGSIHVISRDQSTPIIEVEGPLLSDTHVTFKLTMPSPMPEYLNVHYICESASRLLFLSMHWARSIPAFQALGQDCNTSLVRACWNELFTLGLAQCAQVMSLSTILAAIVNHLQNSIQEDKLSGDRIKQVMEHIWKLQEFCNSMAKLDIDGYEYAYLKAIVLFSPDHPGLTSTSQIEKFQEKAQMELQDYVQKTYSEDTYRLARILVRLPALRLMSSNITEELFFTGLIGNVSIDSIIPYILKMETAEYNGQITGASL
UniProt O15111, whole entry: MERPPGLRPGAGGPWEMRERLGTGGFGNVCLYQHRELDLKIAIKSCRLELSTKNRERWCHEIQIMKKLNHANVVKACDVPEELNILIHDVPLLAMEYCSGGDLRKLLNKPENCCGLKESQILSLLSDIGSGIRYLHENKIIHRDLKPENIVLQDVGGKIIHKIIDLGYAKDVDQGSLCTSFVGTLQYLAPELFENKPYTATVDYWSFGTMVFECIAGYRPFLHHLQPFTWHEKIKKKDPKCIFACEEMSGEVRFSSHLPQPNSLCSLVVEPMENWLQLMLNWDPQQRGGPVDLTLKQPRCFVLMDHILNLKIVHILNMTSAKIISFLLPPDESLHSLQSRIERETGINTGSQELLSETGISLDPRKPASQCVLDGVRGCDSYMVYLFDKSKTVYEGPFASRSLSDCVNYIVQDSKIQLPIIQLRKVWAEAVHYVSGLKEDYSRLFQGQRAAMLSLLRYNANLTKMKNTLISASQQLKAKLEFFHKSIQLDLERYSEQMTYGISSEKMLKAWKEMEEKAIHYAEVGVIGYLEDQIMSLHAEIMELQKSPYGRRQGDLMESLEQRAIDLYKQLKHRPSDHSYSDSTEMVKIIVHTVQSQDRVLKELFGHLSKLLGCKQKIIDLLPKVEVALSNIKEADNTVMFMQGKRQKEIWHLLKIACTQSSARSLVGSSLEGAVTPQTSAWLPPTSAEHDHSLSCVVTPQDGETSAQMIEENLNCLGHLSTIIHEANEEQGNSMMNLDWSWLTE
UniProt P04181, 26-439 limits assumed: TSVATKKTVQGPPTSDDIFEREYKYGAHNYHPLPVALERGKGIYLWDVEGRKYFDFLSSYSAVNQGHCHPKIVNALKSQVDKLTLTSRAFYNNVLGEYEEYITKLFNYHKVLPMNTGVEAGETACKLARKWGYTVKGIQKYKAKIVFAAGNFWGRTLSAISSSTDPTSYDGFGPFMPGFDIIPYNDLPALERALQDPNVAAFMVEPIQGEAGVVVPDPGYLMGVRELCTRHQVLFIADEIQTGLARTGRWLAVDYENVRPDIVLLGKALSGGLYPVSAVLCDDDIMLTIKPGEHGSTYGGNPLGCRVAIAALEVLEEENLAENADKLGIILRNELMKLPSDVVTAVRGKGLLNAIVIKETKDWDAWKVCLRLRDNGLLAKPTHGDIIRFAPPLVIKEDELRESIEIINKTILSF
UniProt P30542, whole entry: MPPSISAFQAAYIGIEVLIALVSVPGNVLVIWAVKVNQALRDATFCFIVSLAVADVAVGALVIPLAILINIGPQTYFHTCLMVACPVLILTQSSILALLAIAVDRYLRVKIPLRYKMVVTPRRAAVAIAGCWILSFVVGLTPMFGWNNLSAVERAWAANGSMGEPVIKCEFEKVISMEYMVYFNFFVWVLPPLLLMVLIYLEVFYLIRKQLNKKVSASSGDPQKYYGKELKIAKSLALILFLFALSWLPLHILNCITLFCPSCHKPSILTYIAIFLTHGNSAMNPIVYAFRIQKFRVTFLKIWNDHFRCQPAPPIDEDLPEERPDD
UniProt Q01813, whole entry: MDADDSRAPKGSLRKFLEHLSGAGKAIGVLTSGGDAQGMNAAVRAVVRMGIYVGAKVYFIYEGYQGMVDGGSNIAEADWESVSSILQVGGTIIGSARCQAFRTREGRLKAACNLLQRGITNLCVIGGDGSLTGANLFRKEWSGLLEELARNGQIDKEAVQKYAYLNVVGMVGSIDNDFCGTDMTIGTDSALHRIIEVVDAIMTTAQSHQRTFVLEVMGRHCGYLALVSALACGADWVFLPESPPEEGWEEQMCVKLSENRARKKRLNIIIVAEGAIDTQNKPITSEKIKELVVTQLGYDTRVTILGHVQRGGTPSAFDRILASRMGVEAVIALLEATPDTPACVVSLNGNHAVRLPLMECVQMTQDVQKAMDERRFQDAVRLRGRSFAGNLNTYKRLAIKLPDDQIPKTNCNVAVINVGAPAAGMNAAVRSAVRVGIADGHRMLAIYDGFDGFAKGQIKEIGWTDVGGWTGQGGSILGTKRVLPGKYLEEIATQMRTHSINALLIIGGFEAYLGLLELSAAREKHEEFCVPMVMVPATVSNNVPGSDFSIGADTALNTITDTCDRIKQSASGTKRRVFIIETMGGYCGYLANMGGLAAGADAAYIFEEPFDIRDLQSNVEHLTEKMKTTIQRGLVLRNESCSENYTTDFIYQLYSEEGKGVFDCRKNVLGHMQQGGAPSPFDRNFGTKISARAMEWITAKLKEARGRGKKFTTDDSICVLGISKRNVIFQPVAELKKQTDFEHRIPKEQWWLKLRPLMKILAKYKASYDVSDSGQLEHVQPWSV

With `CCN1CCN(Cc2ccc(Nc3ncc4c(n3)N(C)c3c(F)cccc3C(=O)N4C)cc2C(F)(F)F)CC1` the selectivity ratio was 36 fold (Aurora kinase A (AURKA, Homo sapiens, UniProt O14965); kinase activity, Z-LYTE; reference: IC50 Aurora B over Aurora A).
Under thermal stabilisation, `C[C@H]1CCCN1Cc1cc2cnc(NC(=O)c3ccc4c(cnn4C)c3)cc2[nH]1` is recorded as “decreased” (Protein ENL (MLLT1, Homo sapiens, UniProt Q03111, Y78A); cellular thermal shift; HEK293 expressing Flag-ENL Y78A).
`CC(C)C[C@H](NC(=O)[C@H](CS)NC(=O)[C@H](CC(N)=O)NC(=O)CN)C(=O)N[C@@H](CCCCN)C(=O)N[C@@H](CO)C(=O)N1CCC[C@H]1C(=O)N[C@H](C(=O)O)[C@@H](C)O` has a Km of 16.7 µM (NMT1; substrate).
Under inhibition, `COc1cc(CC(=O)NCC(NC(=O)C(CCCNC(=O)c2cccc(I)c2)NC(=O)C(Cc2ccc(C(F)(F)P(=O)(O)O)cc2)NC(=O)c2ccc(C)c(Br)c2)C(N)=O)ccc1O` (centres unmarked) is recorded as “no inhibition” (Tyrosine-protein phosphatase non-receptor type 4 (Homo sapiens, UniProt P29074); enzyme activity; 10 µM).
For `CC[C@H](C)[C@H](NC(=O)[C@@H](NC(=O)[C@H](CC(C)C)NC(=O)[C@H](CC(C)C)NC(=O)CN)[C@@H](C)O)C(=O)N[C@@H](CC(C)C)C(=O)N[C@@H](CCCCN)C(=O)N[C@@H](CCCCN)C(=O)O`, the Km was 0.4 µM (NMT1; substrate).
`O=C(CCl)N[C@@H](Cc1ccccc1)C(=O)N1CCCC[C@H]1C(=O)NCCc1c[nH]c2ccc(F)cc12`: “second transition share” 50% (PIN1 (Homo sapiens, UniProt Q13526); thermal shift; two denaturation transitions).
With `CC(C)[C@H](NC(=O)[C@H](CS)NC(=O)CN)C(=O)N[C@@H](CCC(N)=O)C(=O)N[C@@H](CS)C(=O)N[C@@H](CCCCN)C(=O)N[C@@H](CC(=O)O)C(=O)N[C@@H](CCCCN)C(=O)O` the Km was 5.2 µM (NMT1; substrate).
Under “dose for maximal inhibition”, `O=C(Nc1cccnn1)N1CC(Oc2ccc(-c3ccccc3F)cn2)C1` is recorded as no less than 30 mg (FAAH (Homo sapiens, UniProt O00519); enzyme activity, inhibitor; healthy humans, blood; oral, single dose).
The specific binding of `Fc1cc(-c2ccc3c(n2)[nH]c2ccncc23)ccn1` [isotope labelled] is reported as 9.89 a.u. (Microtubule-associated protein tau, paired helical filaments (MAPT, Homo sapiens, UniProt P10636); radioligand binding; PHF tau brain homogenate; 13.55 nM; higher = more binding).
For `COC(=O)c1c(O)cc(O)c(Cl)c1CCc1cccc(OC)c1Cc1ccccc1`, the selectivity ratio was 19 fold (HSP90B1; fluorescence polarization; added: FITC-geldanamycin tracer; reference: Grp94 over Hsp90α).
`O=c1cc(O)n(Cc2ccco2)c(=S)[nH]1` has a Hill slope of -1.3 (Protein lin-28 homolog A, with pre-let-7d (Mus musculus, UniProt Q8K3Y3); HTS dose-response).
`CC[C@@H]1C(=O)N(C)c2cnc(Nc3ccc(C(=O)NC4CCN(C)CC4)cc3OC)nc2N1C1CCCC1` gave a delta Tm of 0.51 ± 0.09 °C (BRD9 (Homo sapiens, UniProt Q9H8M2); 10 µM).
For `COC(=O)c1c(O)cc(O)c(Cl)c1CCc1cc(OC)ccc1Cc1ccccc1`, the selectivity ratio was 5 fold (HSP90B1; fluorescence polarization; added: FITC-geldanamycin tracer; reference: Grp94 over Hsp90α).
`O=C1CCC(N2C(=O)c3cccc(NCCOCCOCCOCCN4CCN(c5ccc(-c6ccc7c(c6)C(=O)N(C(C(=O)Nc6nccs6)c6ccccc6)C7)cn5)CC4)c3C2=O)C(=O)N1` (centres unmarked) — result for “time to maximal degradation”: 24 to 48 h (EGFR (Homo sapiens, UniProt P00533, L858R/T790M); degrader, Western blot; H1975; 0.1 µM).
`CC(=O)[C@]1(O)CC[C@@H]2[C@H]3C[C@@H](C)C4=CC(=O)CC[C@@]4(C)[C@H]3[C@@H](O)C[C@]21C` gave a Hill slope of 0.65 (NR3C1; nuclear translocation, agonist, enzyme fragment complementation).
With `Cc1cc(C)c(CNC(=O)c2cc(-c3ccc(N4CCN(CCNC(=O)CC56CC7CC(CC(C7)C5)C6)CC4)nc3)cc3c2cnn3C(C)C)c(=O)[nH]1` the inhibition was 50% (ADRA1A (Homo sapiens, UniProt P35348); radioligand binding; 10 µM).
`CC[C@H](C)[C@H]1O[C@]2(CC[C@@H]1C)C[C@@H]1C[C@@H](C/C=C(\C)[C@@H](O[C@H]3C[C@H](OC)[C@@H](O[C@H]4C[C@H](OC)[C@@H](O)[C@H](C)O4)[C@H](C)O3)[C@@H](C)/C=C/C=C3\CO[C@@H]4[C@H](O)C(C)=C[C@@H](C(=O)O1)[C@]34O)O2` has a kon of 9150 M⁻¹ s⁻¹ (Nuclear receptor subfamily 2 group C member 2 (Homo sapiens, UniProt P49116); SPR imaging; immobilized compound microarray; added: TR4-LBD 600 nM analyte).
With `CC[C@H](C)[C@H](NC(=O)[C@H](CS)NC(=O)CN)C(=O)N[C@@H](CCCCN)C(=O)N[C@@H](CO)C(=O)N[C@@H](CCCCN)C(=O)NCC(=O)N[C@@H](CCCCN)C(=O)O` the Km was 22.5 µM (NMT1; substrate).
`O=C(/C=C/c1nc2ccccc2[nH]1)c1c(-c2ccccc2)c2cc(Cl)ccc2[nH]c1=O` — result for kinase inhibition: “inhibited” (CHUK (Homo sapiens, UniProt O15111); SelectScreen profiling; concentration not given, panel of 100 kinases).
The Km of `CC[C@H](C)[C@H](NC(=O)[C@H](CCCCN)NC(=O)[C@H](CO)NC(=O)[C@H](CC(C)C)NC(=O)[C@@H](NC(=O)[C@H](CCCCN)NC(=O)CN)C(C)C)C(=O)N[C@@H](Cc1ccccc1)C(=O)O` is reported as 4.4 µM (NMT1; substrate).
The KI of `N[C@H]1C=C(C(=O)O)CCC1(F)F` is reported as 2300 ± 700 nM (OAT (Homo sapiens, UniProt P04181); enzyme inactivation, mechanism-based inactivator).
Under “residual probe binding”, `CCN1CCN(Cc2ccc(NC(=O)c3ccc(C)c(Oc4ncnc5cc(OC)c(OC)cc45)c3)cc2C(F)(F)F)CC1` is recorded as 0.8% (SLK (Homo sapiens, UniProt Q9H2G2); KINOMEscan competition binding; 1.0 µM).
`C[C@]1(c2ccccc2)O[C@@H]2C[C@@H]3[C@@H]4CCC5=CC(=O)C=C[C@@]5(C)[C@]4(F)[C@H](O)C[C@]3(C)[C@@]2(C(=O)CO)O1` has a Hill slope of 0.79 (NR3C1; nuclear translocation, agonist, enzyme fragment complementation).
With `Cn1cc2c(nc(NCCCCNC(=S)Nc3ccc(-c4c5ccc(=O)cc-5oc5cc(O)ccc45)c(C(=O)O)c3)n3nc(-c4ccco4)nc23)n1` the inhibition was 7 ± 5% (ADORA1 (Homo sapiens, UniProt P30542); binding; CHO; 10 µM, added: [3H]R-PIA).
For `O=C(Oc1c(F)c(F)c(F)c(F)c1F)C(c1ccccc1)c1ccccc1`, the maximal inhibition was roughly 80% (PFKP (Homo sapiens, UniProt Q01813); enzyme activity, inhibitor, NADH-coupled absorbance).
`Fc1cccc(-n2cnc3c(NCc4nc5cc(Cl)ccc5[nH]4)nc(N4CCNCC4)nc32)c1` gave a remaining binding of 1.5% (CDK7 (Homo sapiens, UniProt P50613); KINOMEscan competition binding; 10 µM; reference: control).

Some of these lines once more:
With `CC(C)[C@H](NC(=O)[C@H](CS)NC(=O)CN)C(=O)N[C@@H](CCC(N)=O)C(=O)N[C@@H](CS)C(=O)N[C@@H](CCCCN)C(=O)N[C@@H](CC(=O)O)C(=O)N[C@@H](CCCCN)C(=O)O` the Km was 5.2 µM (NMT1; substrate).
Under “dose for maximal inhibition”, `O=C(Nc1cccnn1)N1CC(Oc2ccc(-c3ccccc3F)cn2)C1` is recorded as no less than 30 mg (FAAH (Homo sapiens, UniProt O00519); enzyme activity, inhibitor; healthy humans, blood; oral, single dose).
The specific binding of `Fc1cc(-c2ccc3c(n2)[nH]c2ccncc23)ccn1` [isotope labelled] is reported as 9.89 a.u. (Microtubule-associated protein tau, paired helical filaments (MAPT, Homo sapiens, UniProt P10636); radioligand binding; PHF tau brain homogenate; 13.55 nM; higher = more binding).
